Measured values collected from several papers.
Compare with care: the assays were run in different laboratories. ± marks the error that the study gave.
Technique: steady-state kinetics
B1: POLK T408W/W214Y/W392H (Homo sapiens, UniProt Q9UBT6); chain MGLNDNKAGMEGLDKEKINKIIMEATKGSRFYGNELKKEKQVNQRIENMMQQKAQITSQQLRKAQLQVDRFAMELEQSRNLSNTIVHIDMDAFYAAVEMRDNPELKDKPIAVGSMSMLSTSNYHARRFGVRAAMPGFIAKRLCPQLIIVPPNFDKYRAVSKEVKEILADYDPNFMAMSLDEAYLNITKHLEERQNYPEDKRRYFIKMGSSVENDNPGKEVNKLSEHERSISPLLFEESPSDVQPPGDPFQVNFEEQNNPQILQNSVVFGTSAQEVVKEIRFRIEQKTTLTASAGIAPNTMLAKVCSDKNKPNGQYQILPNRQAVMDFIKDLPIRKVSGIGKVTEKMLKALGIITCTELYQQRALLSLLFSETSHHYFLHISLGLGSTHLWRDGERKSMSVERTFSEINKAEEQYSLCQELCSELAQDLQKERLKGRTVTIKLKNVNFEVKTRASTVSSVVSTAEEIFAIAKELLKTEIDADFPHPLRLRLMGVRISSFPNEEDRKHQQ
B2: putA D779Y (Bradyrhizobium diazoefficiens, UniProt Q89E26); chain MPNIPPPFTAPYAPDDAEIAARLLPASHLSPPQEARIHRTATRLIEAIRKRDDRLGGVEDMLREFALSTKEGLALMVLAEALLRVPDARTADQFIEDKLGEGDFIHHETKSTAFLVNASAWALGLSARVIQPGETPDGTIGRLVKRLGAPAVRTATRQAMRLMGNHFVLGETIEQALERGKPRSGQKTRYSFDMLGEGARTAADARRYFDAYASAIETIGKAAGNHALPDRPGISVKLSALHPRFEAISRARVMVELVPQLLDLAQRAKAHDLNFTVDAEEADRLELSLDVIAATLADPSLKGWDGFGLAIQAYQKRASAVIDYVDALARAHDRKLMVRLVKGAYWDTEIKRAQERGLDGYPVFTRKAMTDLNYVACASKLLALRPRIFPQFATHNALTVATVLEMAEGSSGFEFQRLHGMGEALYEQLAKDHADIAYRTYAPVGSHRDLLAYLVRRLLENGANSSFVAQAADYRVPVPALLQRPADAIVRPQAAAHPRIPLPCDLFAPERRNSRGVEFGARTALDQLLTDVKAETGDLKPIADATPDQAHAAVAAARAGFAGWSRTPAGIRAAALEQAAHLLESRSAHFIALLQREGGKTLDDALSELREAADFCRYYAAQGRKLFGSETAMPGPTGESNALTMRGRGVFVAISPWNFPLAIFLGQVTAALMAGNSVVAKPAEQTPRIAREAVALLHEAGIPKSALYLVTGDGRIGAALTAHPDIAGVVFTGSTEVARSINRALAAKDGPIVPLIAETGGINAMIADATALPEQVADYVVTSAFRSAGQRCSALRLLFVQEDVADRMIEMVAGAARELKIGDPSDVATHVGPVIDVEAKQRLDAHIARMKTEARLHFAGPAPEGCFVAPHIFELTEAGQLTEEVFGPILHVVRYRPENLERVLRAIERTGYGLTLGVHSRIDDSIEAIIDRVQVGNIYVNRNMIGAVVGVQPFGGNGLSGTGPKAGGPHYLARFATEQTVTINTAAAGGNAALLAGEE
B3: Nudt8 (Mus musculus, UniProt Q9CR24); chain MLPDGLSAEDEQRCRQLLARTTARLRSRPAAAAVLVPLCLVRGVPALLYTLRSSRLVGRHKGEVSFPGGKCDPDDQDVIHTALRETQEELGLEVPKEHVWGVLQPVYDREKATIVPVLANVGPLDLQSLRPNLEEVDEVFEMSLAHLLQTQNQGYTHFCQGGHFSYTLPVFLHGPHRVWGLTAVITELTLKLLAPGFYQPSLAVPELPRG
B4: PRP43 R159A (Saccharomyces cerevisiae, UniProt P53131); chain MGSKRRFSSEHPDPVETSIPEQAAEIAEELSKQHPLPSEEPLVHHDAGEFKGLQRHHTSAEEAQKLEDGKINPFTGREFTPKYVDILKIRRELPVHAQRDEFLKLYQNNQIMVFVGETGSGKTTQIPQFVLFDEMPHLENTQVACTQPRRVAAMSVAQAVAEEMDVKLGEEVGYSIRFENKTSNKTILKYMTDGMLLREAMEDHDLSRYSCIILDEAHERTLATDILMGLLKQVVKRRPDLKIIIMSATLDAEKFQRYFNDAPLLAVPGRTYPVELYYTPEFQRDYLDSAIRTVLQIHATEEAGDILLFLTGEDEIEDAVRKISLEGDQLVREEGCGPLSVYPLYGSLPPHQQQRIFEPAPESHNGRPGRKVVISTNIAETSLTIDGIVYVVDPGFSKQKVYNPRIRVESLLVSPISKASAQQRAGRAGRTRPGKCFRLYTEEAFQKELIEQSYPEILRSNLSSTVLELKKLGIDDLVHFDFMDPPAPETMMRALEELNYLACLDDEGNLTPLGRLASQFPLDPMLAVMLIGSFEFQCSQEILTIVAMLSVPNVFIRPTKDKKRADDAKNIFAHPDGDHITLLNVYHAFKSDEAYEYGIHKWCRDHYLNYRSLSAADNIRSQLERLMNRYNLELNTTDYESPKYFDNIRKALASGFFMQVAKKRSGAKGYITVKDNQDVLIHPSTVLGHDAEWVIYNEFVLTSKNYIRTVTSVRPEWLIEIAPAYYDLSNFQKGDVKLSLERIKEKVDRLNELKQGKNKKKSKHSKK
B5: CoA persulfide reductase CDR-RHD (Enterococcus faecalis, UniProt A0ACD6TF65); chain MKIVIIGGVAGGMSAATRLRRLMEDAEIVVMEKGPFVSFANCGLPYYVSGEIAEREQLLVQTPEALKARFNLDVRPHHEVVAIDPIEKVITVKHETEILTEHYDKLILSPGAKPFVPPITGLAEAKNVFSLRNVPDLDQIMTALTPETKRAVVIGAGFIGLEMAENLQKRGLEVTLVEKAPHVLPPLDEEMAAFVKAELSKNNVQVITGQSAVAFEEEGQVIRLEDGQTLASDLTILSVGVQPENTLAVEAGVATGLRGGIVVDEHYQTNQPDIYAVGDAIVVKQQITQEDALISLASPANRQGRQVADVIAGLERKNQGSIGTAIVRVFDLTAASTGLSERAAKAAGLTTAVVHISGKDHAGYYPGATDLQLKLVFHPTTGEIYGAQGIGAKGVDKRIDILATAIKGQLTIFDLPELEFTYAPPFGSAKDPVNMLGYAAMNLVEGLSENVQWYELSNELAKGAVLLDVRNPAERANGQFKNAVSIPLNELRERLEELDKSTEYIVSCHSGLRSYIAERMLKQAGISAKNLDGAFALYRMVKPEELENV
B6: axeA (Thermotoga maritima, UniProt Q9WXT2); chain MAFFDLPLEELKKYRPERYEEKDFDEFWEETLAESEKFPLDPVFERMESHLKTVEAYDVTFSGYRGQRIKGWLLVPKLEEEKLPCVVQYIGYNGGRGFPHDWLFWPSMGYICFVMDTRGQGSGWLKGDTPDYPEGPVDPQYPGFMTRGILDPRTYYYRRVFTDAVRAVEAAASFPQVDQERIVIAGGSQGGGIALAVSALSKKAKALLCDVPFLCHFRRAVQLVDTHPYAEITNFLKTHRDKEEIVFRTLSYFDGVNFAARAKIPALFSVGLMDNICPPSTVFAAYNYYAGPKEIRIYPYNNHEGGGSFQAVEQVKFLKKLFEKG
B7: enzyme E323G (UniProt H9KVH3); chain ADASQIVSEMGAGWNLGNQLEAAVNGTPNETAWGNPTVTPELIKKVKAAGFKSIRIPVSYLNNIGSAPNYTINAAWLNRIQQVVDYAYNEGLYVIINIHGDGYNSVQGGWLLVNGGNQTAIKEKYKKVWQQIATKFSNYNDRLIFESMNEVFDGNYGNPNSAYYTNLNAYNQIFVDTVRQTGGNNNARWLLVPGWNTNIDYTVGNYGFTLPTDNYRSSAIPSSQKRIMISAHYYSPWDFAGEENGNITQWGATSTNPAKKSTWGQEDYLESQFKSMYDKFVTQGYPVVIGGFGSIDKTSYDSSNNVYRAAYAKAVTAKAKKYKMVPVYWDNGHNGQHGFALFNRSNNTVTQQNIINAIMQGMQ
B8: LYS12 D271N (Saccharomyces cerevisiae, UniProt P40495); chain SLTIGLIPGDGIGKEVIPAGKQVLENLNSKHGLSFNFIDLYAGFQTFQETGKALPDETVKVLKEQCQGALFGAVQSPTTKVEGYSSPIVALRREMGLFANVRPVKSVEGEKGKPIDMVIVRENTEDLYIKIEKTYIDKATGTRVADATKRISEIATRRIATIALDIALKRLQTRGQATLTVTHKSNVLSQSDGLFREICKEVYESNKDKYGQIKYNEQIVDSMVYRLFREPQCFDVIVAPNLYGDILSNGAAALVGSLGVVPSANVGPEIVIGEPCHGSAPDIAGKGIANPIATIRSTALMLEFLGHNEAAQDIYKAVDANLREGSIKTPDLGGKASTQQVVDDVLSRL
B9: BPHL (Homo sapiens, UniProt Q86WA6); chain SVTSAKVAVNGVQLHYQQTGEGDHAVLLLPGMLGSGETDFGPQLKNLNKKLFTVVAWDPRGYGHSRPPDRDFPADFFERDAKDAVDLMKALKFKKVSLLGWSDGGITALIAAAKYPSYIHKMVIWGANAYVTDEDSMIYEGIRDVSKWSERTRKPLEALYGYDYFARTCEKWVDGIRQFKHLPDGNICRHLLPRVQCPALIVHGEKDPLVPRFHADFIHKHVKGSRLHLMPEGKHNLHLRFADEFNKLAEDFLQ
B10: protein Y93N (Thermus thermophilus, UniProt Q5SKR5); chain MSAPKPFVIGIAGGTASGKTTLAQALARTLGERVALLPMDHYYKDLGHLPLEERLRVNYDHPDAFDLALYLEHAQALLRGLPVEMPVYDFRANTRSPRRTPVRPAPVVILEGILVLYPKELRDLMDLKVFVDADADERFIRRLKRDVLERGRSLEGVVAQYLEQVKPMHLHFVEPTKRYADVIVPRGGQNPVALEMLAAKALARLARMGAA
B11: vioC (Streptomyces vinaceus, UniProt Q6WZB0); chain MTESPTTHHGAAPPDSVATPVRPWSEFRLTPAEAAAAAALAARCAQRYDETDGPEFLLDAPVIAHELPRRLRTFMARARLDAWPHALVVRGNPVDDAALGSTPVHWRTARTPGSRPLSFLLMLYAGLLGDVFGWATQQDGRVVTDVLPIKGGEHTLVSSSSRQELGWHTEDAFSPYRADYVGLLSLRNPDGVATTLAGVPLDDLDERTLDVLFQERFLIRPDDSHLQVNNSTAQQGRVEFEGIAQAADRPEPVAILTGHRAAPHLRVDGDFSAPAEGDEEAAAALGTLRKLIDASLYELVLDQGDVAFIDNRRAVHGRRAFQPRYDGRDRWLKRINITRDLHRSRKAWAGDSRVLGQR

B1 (POLK T408W/W214Y/W392H)  kcat/Km (Nc1ccn([C@H]2C[C@H](O)[C@@H](COP(=O)(O)OP(=O)(O)OP(=O)(O)O)O2)c(=O)n1; pH 7.5, 23 °C, MgCl2 5 mM, with: G template): 13000 M⁻¹ s⁻¹
B2 (putA D779Y)  kcat/Km (O=C(O)[C@@H]1CCC=N1; pH 7.5, 23 °C): 100 ± 16 M⁻¹ s⁻¹
B3 (Nudt8)  kcat/Km (CCCC(=O)SCCNC(=O)CCNC(=O)[C@H](O)C(C)(C)COP(=O)(O)OP(=O)(O)OC[C@H]1O[C@@H](n2cnc3c(N)ncnc32)[C@H](O)[C@@H]1OP(=O)(O)O; pH 8.5, with: 2 mM Mn2+): 8000 M⁻¹ s⁻¹
B4 (PRP43 R159A)  kcat/Km (Nc1ccn([C@@H]2O[C@H](COP(=O)(O)OP(=O)(O)OP(=O)(O)O)[C@@H](O)[C@H]2O)c(=O)n1; pH 8, KCl 100 mM, without Pfa1, with: polyA 0.2 mM, magnesium acetate 2.5 mM): 6500 ± 1300 M⁻¹ s⁻¹
AphC (Rhodococcus jostii, UniProt Q0S9X1)  kcat/Km (Oc1ccccc1O; pH 8, 25 °C, apparent, with: O2): 1500 M⁻¹ s⁻¹
B5  kcat/Km (CC(C)(COP(=O)(O)OP(=O)(O)OC[C@H]1O[C@@H](n2cnc3c(N)ncnc32)[C@H](O)[C@@H]1OP(=O)(O)O)[C@@H](O)C(=O)NCCC(=O)NCCSS; pH 8, 25 °C, NaCl 200 mM, with: FAD 100 nM, NADH 100 µM): 44000 ± 10000 M⁻¹ s⁻¹
B6 (axeA)  kcat/Km (CC(=O)Oc1ccc([N+](=O)[O-])cc1; pH 6.5, 50 °C, temperature uncertain, apparent): 583000 M⁻¹ s⁻¹
B7 (enzyme E323G)  kcat/Km (OC[C@H]1O[C@@H](O[C@H]2[C@@H](OC[C@H]3O[C@@H](O[C@H]4[C@H](O)[C@@H](O)[C@H](O[C@H]5[C@H](O)[C@@H](O)[C@@H](F)O[C@@H]5CO)O[C@@H]4CO[C@H]4OC[C@@H](O)[C@H](O)[C@H]4O[C@@H]4O[C@H](CO)[C@H](O)[C@H](O)[C@H]4O)[C@H](O)[C@@H](O)[C@@H]3O[C@@H]3O[C@H](CO[C@H]4OC[C@@H](O)[C@H](O)[C@H]4O)[C@@H](O)[C@H](O)[C@H]3O)OC[C@@H](O)[C@@H]2O)[C@H](O)[C@@H](O)[C@H]1O; pH 7.5, 30 °C, apparent): 617 M⁻¹ s⁻¹
B8 (LYS12 D271N)  kcat/Km (O=C(O)CC[C@H](C(=O)O)[C@@H](O)C(=O)O; pH 7.5, 25 °C, potassium acetate 100 mM, substrate as Mg complex, with: NAD+ varied; Mg2+ 10 mM): 7200 ± 200 M⁻¹ s⁻¹
B9 (BPHL)  kcat/Km (CC(C)[C@H](N)C(=O)NCc1cccc(NC=NN)c1; pH 7.4, 37 °C): 1.26 ± 0.08 M⁻¹ s⁻¹
B10 (protein Y93N)  kcat/Km (Nc1ccn([C@@H]2O[C@H](CO)[C@@H](O)[C@H]2O)c(=O)n1; pH 7.2, 25 °C, KCl 100 mM, with: ATP 100–200 µM): 8700 M⁻¹ s⁻¹
B11 (vioC)  kcat/Km (N=C(N)NCCCC[C@H](N)C(=O)O; pH 8, 30 °C, with: alpha-ketoglutarate 1.0 mM): 1970 ± 785 M⁻¹ s⁻¹

A few entries again:
B11 (vioC)  kcat/Km (N=C(N)NCCCC[C@H](N)C(=O)O; pH 8, 30 °C, with: alpha-ketoglutarate 1.0 mM): 1970 ± 785 M⁻¹ s⁻¹
